Measurements collected from several papers.
Every numbered part comes from another study and shows a few of its results, in no order. ± gives the spread as reported.

Set 1 — organism: VSVΔG with SARS-CoV-2 spike; read-out: pseudovirus infection; strain: Wuhan variant; concentration: 10 µM; quantity: inhibition
O=C(/C=C/S/C=C/C(=O)c1ccc(F)cc1)c1ccc(F)cc1: 40%
C=C(C#N)CN1CCN(CC(=C)C#N)CC1: 62%
Cc1nc2cc(-c3cccc4ccnn34)ccc2s1: 86%
CCCCc1ccc(Nc2cc(C)nc(-n3nc(C)cc3C)n2)cc1: 67%
O=C1CN(c2ncnc3sc4c(c23)CCCC4)CCN1: 53%
COc1ccccc1C(=O)c1sc(Nc2ccc(C(C)C)cc2)nc1N: 35%
COc1ccc2c(c1)[nH]c1c(C)nccc12: 57%
Cc1nc(Sc2nnc(-c3ccccc3)n2C)c2sc(=S)n(-c3ccccc3)c2n1: 43%

Single results of other studies
rep nsp12 RdRp: Replicase polyprotein 1ab, nsp12 RdRp (rep, Severe acute respiratory syndrome coronavirus 2, UniProt P0DTD1)
O=C(O[C@@H]1O[C@@H]2COC(=O)c3cc(O)c(O)c(O)c3-c3c(cc(O)c(O)c3O)C(=O)O[C@H]([C@H]1O)[C@@H]2O)c1cc(O)c(O)c(O)c1  BLI response (rep nsp12 RdRp; binding, biolayer interferometry; 50 µM): 0.18 nm
CCC(CC)[C@H](NC(C)=O)[C@@H]1[C@H](O)[C@@H](C(=O)O)C[C@H]1N=C(N)N  IC50 (neuraminidase (Influenza B virus, UniProt A0A1S5RAG6, I221N)): 0.359 ± 0.0312 µM
COC(=O)[C@H](Cc1cccc(C(=N)N)c1)[C@@H](C)NC(=O)c1ccc(-c2cc[n+]([O-])cc2)cc1  IC50 (Calu-3; pseudoparticle entry; SARS-CoV-2 spike pseudotyped particles): 15.8 µM
N[C@@H](CC(=O)N1CCn2c(nnc2C(F)(F)F)C1)Cc1cc(F)c(F)cc1F  IC50 (SARS-CoV-2; viral replication; Vero E6, B.1.617 (Kappa); 48 h): 1.89 µM
COc1cc(N2CCC(N3CCN(C)CC3)CC2)ccc1Nc1ncc(Cl)c(Nc2ccccc2P(C)(C)=O)n1  BLI response (rep nsp12 RdRp; binding, biolayer interferometry; concentration not given): 0 nm
CCC(CC)COC(=O)[C@H](C)N[P@](=O)(OC[C@H]1O[C@@](C#N)(c2ccc3c(N)ncnn23)[C@H](O)[C@@H]1O)Oc1ccccc1  EC50 (SARS-CoV-2; viral replication; Calu-3, B.1.617.2 Delta variant; 72 h): 2.78 µM
CC#CCn1c(N2CCC[C@@H](N)C2)nc2c1c(=O)n(Cc1nc(C)c3ccccc3n1)c(=O)n2C  IC50 (SARS-CoV-2; viral replication; Vero E6, B.1.351 (Beta); 48 h): 1.92 µM
N=C(N)c1ccc2cc(OC(=O)c3ccc(N=C(N)N)cc3)ccc2c1  IC50 (Calu-3; pseudoparticle entry; SARS-CoV-2 spike pseudotyped particles): 0.02 µM
CC1CC(c2cccc(C(=O)O)c2)=NN1c1ccc(C#N)c(Cl)c1 (centres unmarked)  EC50 (SARS-CoV-2; viral replication; Calu-3, B.1.617.2 Delta variant; 72 h): 32.7 µM

A few entries again (single results of other studies):
CC#CCn1c(N2CCC[C@@H](N)C2)nc2c1c(=O)n(Cc1nc(C)c3ccccc3n1)c(=O)n2C  IC50 (SARS-CoV-2; viral replication; Vero E6, B.1.351 (Beta); 48 h): 1.92 µM
O=C(O[C@@H]1O[C@@H]2COC(=O)c3cc(O)c(O)c(O)c3-c3c(cc(O)c(O)c3O)C(=O)O[C@H]([C@H]1O)[C@@H]2O)c1cc(O)c(O)c(O)c1  BLI response (rep nsp12 RdRp; binding, biolayer interferometry; 50 µM): 0.18 nm
